Published values from different studies.
Each numbered part is a random draw from the data of one study; scales do not carry over between parts. Several values in a cell are separate wells, animals, samples, runs or records.

Set 1 — route: intravenous; measurement: concentration
SMILES: Cc1ncsc1-c1ccc(C(CO)NC(=O)C2CC(O)CN2C(=O)C(C(C)C)n2cc(-c3ccc(COc4c(-c5c(C)c(F)cc6[nH]ncc56)c(C5CC5)cc5c(N6CC7CC6CN7)nc(OC6CCOCC6)nc45)cc3)nn2)cc1 (stereo not drawn)
system = male Balb/c nu/nu mouse (PK-59 xenograft), tumor; setting = 10 mg/kg, 6 h; value = 207 ng/g
system = mouse (PK-59 xenograft), plasma; setting = 10 mg/kg, 48 h; value = 4.51 ng/mL and 6.67 ng/mL and 3.14 ng/mL
system = mouse, PK-59 xenograft, tumor; setting = 10 mg/kg, 144 h; value = 77 ng/g and 113 ng/g and 171 ng/g
system = mouse, PK-59 xenograft, tumor; setting = 30 mg/kg, 48 h; value = 983 ng/g and 599 ng/g
system = mouse, PK-59 xenograft, pancreas; setting = 30 mg/kg, 144 h; value = 17.3 ng/g and 24.1 ng/g
system = mouse (PK-59 xenograft), tumor; setting = 10 mg/kg, 48 h; value = 299 ng/g
system = male Balb/c nu/nu mouse, PK-59 xenograft, plasma; setting = 30 mg/kg, 144 h; value = 1.38 ng/mL and 1.88 ng/mL and 3.48 ng/mL
system = male Balb/c nu/nu mouse, PK-59 xenograft, plasma; setting = 30 mg/kg, 2 h; value = 6660 ng/mL and 9090 ng/mL

Set 2 — cell line: Gaucher fibroblasts L444P/L444P; method: 4-MUG hydrolysis, cell lysate; measurement: GCase activity
SMILES: Ic1ccc(Nc2nc(NCCN3CCOCC3)nc(N3CC4CC3CO4)n2)cc1 (stereo not drawn)
setting = 1 µM, 72 h; scale = reference: vehicle; value = 99%
setting = 0.1 µM; scale = reference: DMSO; value = 99.2% and 106% and 102% and 97.4% and 98.9% and 94.2%
setting = 10 µM, 72 h; scale = reference: vehicle; value = 107%
setting = 1 µM; scale = reference: DMSO; value = 104% and 100% and 95.5% and 96.5% and 98.2% and 98%

Set 3 — measurement: inhibition
Structure (SMILES): Cc1ccc(O)c(C)c1-c1cnc2[nH]c(-c3cnc(N4CCC5(CC4)CC(N4CCN(c6ccc(N[C@H]7CCC(=O)N(C)C7=O)cc6F)CC4)CO5)nc3)cc2c1C#N (single isomer, unassigned)
PKMYT1: Membrane-associated tyrosine- and threonine-specific cdc2-inhibitory kinase (PKMYT1, Homo sapiens, UniProt Q99640)
Sequence of UniProt Q99640 (whole entry, looked up): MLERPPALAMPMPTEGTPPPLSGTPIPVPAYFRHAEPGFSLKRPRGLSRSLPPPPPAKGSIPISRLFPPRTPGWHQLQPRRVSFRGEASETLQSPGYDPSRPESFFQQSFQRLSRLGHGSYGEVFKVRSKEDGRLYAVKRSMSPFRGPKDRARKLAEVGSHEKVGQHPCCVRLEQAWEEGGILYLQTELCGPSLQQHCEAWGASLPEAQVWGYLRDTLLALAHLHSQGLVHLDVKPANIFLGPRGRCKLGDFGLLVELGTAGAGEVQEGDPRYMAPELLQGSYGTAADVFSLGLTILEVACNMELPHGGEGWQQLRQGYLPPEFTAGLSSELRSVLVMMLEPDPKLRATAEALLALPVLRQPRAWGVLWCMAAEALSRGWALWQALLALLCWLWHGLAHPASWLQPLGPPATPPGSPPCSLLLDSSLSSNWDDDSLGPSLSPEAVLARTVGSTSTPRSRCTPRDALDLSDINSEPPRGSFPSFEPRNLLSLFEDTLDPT
tested on = HCC1569; assay = automated capillary immunoblot, item: CDK1 phospho-Thr14; setting = 0.46 nM, 24 h; value = -3.77%
tested on = PKMYT1; assay = kinase activity, inhibitor; setting = 0.1111 µM; value = 96.6% and 95.2%
tested on = PKMYT1; assay = enzyme activity, inhibitor; setting = 4.12 nM; value = 27.6% and 31.3%
tested on = HCC1569; assay = automated capillary immunoblot, item: CDK1 phospho-Thr14; setting = 1.37 nM, 24 h; value = 7.8%
tested on = HCC1569; assay = automated capillary immunoblot, item: CDK1 phospho-Thr14; setting = 0.15 nM, 24 h; value = -5.25%
tested on = HCC1569; assay = automated capillary immunoblot, item: CDK1 phospho-Thr14; setting = 1000 nM, 24 h; value = 92.6%
tested on = HCC1569; assay = automated capillary immunoblot, item: CDK1 phospho-Thr14; setting = 12.35 nM, 24 h; value = 24.9%
tested on = PKMYT1; assay = kinase activity, inhibitor; setting = 5e-05 µM; value = -7.57% and 0.82%

Set 4 — cell line: U-87 MG; tested at: concentration not given; reference: DMSO; measurement: log2 fold change
SMILES: CCN1/C(=C/C=C2\CCCC(/C=C/C3=[N+](CC)c4ccccc4C3(C)C)=C2NCCCCCCCCN2CCC(Nc3nc4ccccc4n3Cc3ccc(F)cc3)CC2)C(C)(C)c2ccccc21
assay = item: ATP2B4 mRNA; value = -1.6
assay = item: KCP mRNA; value = 2.41
assay = item: BEST1 mRNA; value = 1.25
assay = item: ALDH3B1 mRNA; value = -1.54
assay = item: LTO1 mRNA; value = 1.13
assay = item: PLB1 mRNA; value = -1.27
assay = item: PRMT6 mRNA; value = -1.2
assay = item: CASP3 mRNA; value = 0.835
assay = item: CSF1R mRNA; value = -2.42
assay = item: STARD5 mRNA; value = -1.33
assay = item: GAS2L1 mRNA; value = -1.01
assay = item: KLF9 mRNA; value = 1.19
assay = item: BAMBI mRNA; value = 1.96
assay = item: HYAL2 mRNA; value = -0.872
assay = item: PRKAB1 mRNA; value = 1.13
assay = item: TRIM25 mRNA; value = 0.816

For quick reference, copied from above (set 2):
setting = 1 µM, 72 h; scale = reference: vehicle; value = 99%
setting = 0.1 µM; scale = reference: DMSO; value = 99.2% and 106% and 102% and 97.4% and 98.9% and 94.2%
setting = 10 µM, 72 h; scale = reference: vehicle; value = 107%
setting = 1 µM; scale = reference: DMSO; value = 104% and 100% and 95.5% and 96.5% and 98.2% and 98%
